# Results pooled from the literature.
# Each line is one published result; not all experiments were run side by side. ± marks the error that the study gave.
# MLLT1 with AF4: Protein ENL, with AF4 (MLLT1, Homo sapiens, UniProt Q03111)
# Chain of UniProt Q03111 (whole entry, looked up): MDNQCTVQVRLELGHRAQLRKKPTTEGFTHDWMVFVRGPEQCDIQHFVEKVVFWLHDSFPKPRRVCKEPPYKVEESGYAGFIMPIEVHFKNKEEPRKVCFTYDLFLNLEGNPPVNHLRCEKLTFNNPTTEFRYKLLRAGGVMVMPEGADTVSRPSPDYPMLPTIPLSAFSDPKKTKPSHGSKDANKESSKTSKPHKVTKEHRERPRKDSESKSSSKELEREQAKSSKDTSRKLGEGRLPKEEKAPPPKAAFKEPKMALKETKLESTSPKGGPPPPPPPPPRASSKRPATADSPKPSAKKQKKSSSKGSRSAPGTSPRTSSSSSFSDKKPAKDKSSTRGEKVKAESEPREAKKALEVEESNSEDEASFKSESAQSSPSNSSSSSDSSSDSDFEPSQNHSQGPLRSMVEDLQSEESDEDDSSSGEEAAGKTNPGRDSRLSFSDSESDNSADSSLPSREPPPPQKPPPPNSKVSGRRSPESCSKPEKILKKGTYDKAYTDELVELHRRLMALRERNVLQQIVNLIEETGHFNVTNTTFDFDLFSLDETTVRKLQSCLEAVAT
# BMX: Cytoplasmic tyrosine-protein kinase BMX (BMX, Homo sapiens, UniProt P51813)
# Chain of UniProt P51813 (whole entry, looked up): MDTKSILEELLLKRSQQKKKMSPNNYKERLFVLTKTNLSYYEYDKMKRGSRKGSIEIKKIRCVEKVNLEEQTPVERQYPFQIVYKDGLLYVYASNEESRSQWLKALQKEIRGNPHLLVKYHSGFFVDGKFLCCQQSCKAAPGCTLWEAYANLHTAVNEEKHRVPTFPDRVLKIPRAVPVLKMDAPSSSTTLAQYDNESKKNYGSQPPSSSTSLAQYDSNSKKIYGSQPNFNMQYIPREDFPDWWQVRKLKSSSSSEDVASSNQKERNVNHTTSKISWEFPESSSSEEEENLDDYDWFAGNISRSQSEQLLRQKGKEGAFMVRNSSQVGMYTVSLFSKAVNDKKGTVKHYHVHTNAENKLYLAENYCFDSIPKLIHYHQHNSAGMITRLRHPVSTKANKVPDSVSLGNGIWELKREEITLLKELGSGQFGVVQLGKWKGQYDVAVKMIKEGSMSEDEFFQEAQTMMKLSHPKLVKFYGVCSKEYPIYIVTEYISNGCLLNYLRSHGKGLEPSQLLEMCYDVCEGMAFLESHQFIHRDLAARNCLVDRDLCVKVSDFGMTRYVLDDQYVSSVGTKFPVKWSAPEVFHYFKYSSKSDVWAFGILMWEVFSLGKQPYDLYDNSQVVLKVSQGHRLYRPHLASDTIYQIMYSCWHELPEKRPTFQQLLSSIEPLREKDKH
# MAOA: Amine oxidase [flavin-containing] A (MAOA, Homo sapiens, UniProt P21397)
# Chain of UniProt P21397 (whole entry, looked up): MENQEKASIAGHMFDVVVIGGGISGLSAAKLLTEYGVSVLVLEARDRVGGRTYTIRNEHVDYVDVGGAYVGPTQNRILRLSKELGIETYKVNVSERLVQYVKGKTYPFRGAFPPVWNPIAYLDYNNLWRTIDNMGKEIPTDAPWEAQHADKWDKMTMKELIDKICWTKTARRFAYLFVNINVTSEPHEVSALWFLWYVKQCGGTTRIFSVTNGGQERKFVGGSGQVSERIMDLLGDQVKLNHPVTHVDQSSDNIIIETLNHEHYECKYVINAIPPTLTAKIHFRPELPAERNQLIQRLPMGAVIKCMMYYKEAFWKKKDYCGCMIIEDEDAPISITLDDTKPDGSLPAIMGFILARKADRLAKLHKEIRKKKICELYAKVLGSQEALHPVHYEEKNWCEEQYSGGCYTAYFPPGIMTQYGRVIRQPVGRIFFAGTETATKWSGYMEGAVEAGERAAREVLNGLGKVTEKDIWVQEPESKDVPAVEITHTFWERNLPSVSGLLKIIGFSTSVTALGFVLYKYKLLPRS
# fabG: 3-oxoacyl-[acyl-carrier-protein] reductase FabG (fabG, Pseudomonas aeruginosa, UniProt O54438)
# Chain of UniProt O54438 (whole entry, looked up): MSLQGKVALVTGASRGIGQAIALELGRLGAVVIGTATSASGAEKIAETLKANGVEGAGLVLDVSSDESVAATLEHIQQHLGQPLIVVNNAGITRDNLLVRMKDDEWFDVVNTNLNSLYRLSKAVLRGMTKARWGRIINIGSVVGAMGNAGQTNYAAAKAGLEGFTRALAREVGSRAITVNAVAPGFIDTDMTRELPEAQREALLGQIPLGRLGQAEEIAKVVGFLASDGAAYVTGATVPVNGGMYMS
# TST: Thiosulfate sulfurtransferase (TST, Bos taurus, UniProt P00586)
# Chain of UniProt P00586 (whole entry, looked up): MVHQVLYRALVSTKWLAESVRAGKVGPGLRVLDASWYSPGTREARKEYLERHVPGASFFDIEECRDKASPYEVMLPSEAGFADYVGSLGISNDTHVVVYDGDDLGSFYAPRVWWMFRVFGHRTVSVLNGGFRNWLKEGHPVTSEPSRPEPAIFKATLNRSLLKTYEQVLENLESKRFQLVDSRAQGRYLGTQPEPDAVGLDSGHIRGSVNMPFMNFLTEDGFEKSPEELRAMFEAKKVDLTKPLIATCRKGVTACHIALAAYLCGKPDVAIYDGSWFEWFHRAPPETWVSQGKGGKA
# ORF1 3C-like protease: Genome polyprotein, 3C-like protease (ORF1, Hu/NV/NV/1968/US, UniProt Q83883)
# Chain of UniProt Q83883 (whole entry, looked up): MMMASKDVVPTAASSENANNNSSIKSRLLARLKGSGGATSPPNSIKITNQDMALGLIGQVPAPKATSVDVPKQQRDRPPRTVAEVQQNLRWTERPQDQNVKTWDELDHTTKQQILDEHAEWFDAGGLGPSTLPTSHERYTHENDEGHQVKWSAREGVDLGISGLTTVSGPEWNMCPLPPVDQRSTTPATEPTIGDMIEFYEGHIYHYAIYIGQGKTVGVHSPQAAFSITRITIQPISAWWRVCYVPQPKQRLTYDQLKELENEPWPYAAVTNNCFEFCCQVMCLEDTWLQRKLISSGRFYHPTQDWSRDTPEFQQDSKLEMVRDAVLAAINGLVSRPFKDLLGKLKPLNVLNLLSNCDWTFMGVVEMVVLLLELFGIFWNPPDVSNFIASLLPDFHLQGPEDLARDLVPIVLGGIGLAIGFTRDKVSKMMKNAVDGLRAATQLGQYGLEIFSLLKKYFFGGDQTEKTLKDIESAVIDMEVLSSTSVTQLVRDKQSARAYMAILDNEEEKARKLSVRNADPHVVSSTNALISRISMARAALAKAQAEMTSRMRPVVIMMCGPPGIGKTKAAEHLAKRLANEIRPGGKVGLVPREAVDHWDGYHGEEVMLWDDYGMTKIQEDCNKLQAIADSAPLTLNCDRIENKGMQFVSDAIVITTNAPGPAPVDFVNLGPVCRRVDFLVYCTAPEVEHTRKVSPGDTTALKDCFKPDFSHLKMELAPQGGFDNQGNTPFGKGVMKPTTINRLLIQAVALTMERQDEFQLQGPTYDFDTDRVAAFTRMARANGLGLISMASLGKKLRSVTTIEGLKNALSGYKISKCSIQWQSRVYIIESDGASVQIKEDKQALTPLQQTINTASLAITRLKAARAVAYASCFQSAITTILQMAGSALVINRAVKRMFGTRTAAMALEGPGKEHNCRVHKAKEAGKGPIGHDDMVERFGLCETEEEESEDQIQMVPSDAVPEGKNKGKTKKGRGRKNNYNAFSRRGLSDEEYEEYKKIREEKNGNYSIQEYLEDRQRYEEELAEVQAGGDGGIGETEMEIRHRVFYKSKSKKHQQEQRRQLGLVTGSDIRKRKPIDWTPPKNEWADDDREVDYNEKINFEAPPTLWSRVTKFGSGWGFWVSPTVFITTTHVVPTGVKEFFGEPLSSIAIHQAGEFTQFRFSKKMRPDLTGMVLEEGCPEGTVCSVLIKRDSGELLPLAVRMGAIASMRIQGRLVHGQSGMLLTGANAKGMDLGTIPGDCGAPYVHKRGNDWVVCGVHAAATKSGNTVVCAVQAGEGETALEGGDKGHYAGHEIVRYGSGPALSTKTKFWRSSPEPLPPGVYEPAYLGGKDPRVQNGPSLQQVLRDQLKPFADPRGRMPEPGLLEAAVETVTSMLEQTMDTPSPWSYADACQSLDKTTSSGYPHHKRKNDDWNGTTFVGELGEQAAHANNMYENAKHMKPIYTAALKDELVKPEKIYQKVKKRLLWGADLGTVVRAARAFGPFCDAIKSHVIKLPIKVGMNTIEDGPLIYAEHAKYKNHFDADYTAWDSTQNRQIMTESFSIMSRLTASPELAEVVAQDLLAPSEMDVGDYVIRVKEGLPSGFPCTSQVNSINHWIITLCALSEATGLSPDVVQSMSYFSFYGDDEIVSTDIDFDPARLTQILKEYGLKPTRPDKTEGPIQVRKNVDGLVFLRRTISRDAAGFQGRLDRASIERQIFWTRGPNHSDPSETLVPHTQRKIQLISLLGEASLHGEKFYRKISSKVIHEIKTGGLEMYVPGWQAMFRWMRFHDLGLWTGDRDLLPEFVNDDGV
# Chain of UniProt Q8NBQ5 (whole entry, looked up): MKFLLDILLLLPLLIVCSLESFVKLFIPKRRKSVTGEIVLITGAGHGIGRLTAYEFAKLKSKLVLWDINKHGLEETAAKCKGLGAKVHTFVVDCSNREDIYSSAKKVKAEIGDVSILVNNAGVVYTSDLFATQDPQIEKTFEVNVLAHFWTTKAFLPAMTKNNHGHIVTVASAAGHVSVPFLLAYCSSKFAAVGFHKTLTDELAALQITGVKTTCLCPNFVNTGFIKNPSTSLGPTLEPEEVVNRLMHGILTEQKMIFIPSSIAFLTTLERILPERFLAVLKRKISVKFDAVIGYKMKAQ
# Chain of UniProt P61073 (whole entry, looked up): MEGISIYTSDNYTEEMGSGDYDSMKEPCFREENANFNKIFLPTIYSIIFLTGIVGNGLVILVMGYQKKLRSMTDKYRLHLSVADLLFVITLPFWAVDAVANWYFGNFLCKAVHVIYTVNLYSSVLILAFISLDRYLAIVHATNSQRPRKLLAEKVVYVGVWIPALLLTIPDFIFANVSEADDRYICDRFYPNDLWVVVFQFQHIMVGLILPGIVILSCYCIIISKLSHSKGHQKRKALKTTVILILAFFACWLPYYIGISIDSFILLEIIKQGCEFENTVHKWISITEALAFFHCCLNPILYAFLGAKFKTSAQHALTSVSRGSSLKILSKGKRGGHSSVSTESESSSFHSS
# Chain of UniProt Q96D96 (whole entry, looked up): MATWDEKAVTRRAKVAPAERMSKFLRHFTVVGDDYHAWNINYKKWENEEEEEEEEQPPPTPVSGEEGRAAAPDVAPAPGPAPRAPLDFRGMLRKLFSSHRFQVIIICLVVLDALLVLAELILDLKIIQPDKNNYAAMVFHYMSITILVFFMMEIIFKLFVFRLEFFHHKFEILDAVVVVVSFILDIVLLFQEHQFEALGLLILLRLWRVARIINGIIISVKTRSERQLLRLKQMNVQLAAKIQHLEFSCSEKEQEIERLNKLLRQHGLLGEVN
SMILES,target,test,test system,conditions,IC50 [µM]
CCCCCCCCCCCC=O,"uncharacterized protein (Bradysia odoriphaga, UniProt A0A2S0X9G4)","binding, competitive fluorescence displacement",,pH 7.4,> 50
O=C(/C=C/c1ccc(Cl)cc1)N1CCC2(CC1)CN(Cc1ccc(Cl)c(Cl)c1)C(=O)O2,"GPR183 (Homo sapiens, UniProt P32249)",GTP turnover,,"added: 7alpha,25-OHC",~0.35
CN1CCN(c2ccc(Nc3ncc4cc(C#N)c(=O)n(C5CCCC5)c4n3)cc2)CC1,"STK17A (Homo sapiens, UniProt Q9UEE5)",,,,> 10
c1cc(-c2cc3ncc(OCC4CCNCC4)nc3cc2-c2cccc(N3CCCCC3)c2)cc(N2CCCCC2)c1,MLLT1 with AF4,AlphaScreen,,,0.65 ± 0.01
O=Cc1cc2ccccc2cc1C=O,"CD209 antigen (CD209, Homo sapiens, UniProt Q9NNX6)","binding, HRP plate assay, immobilized target",,"overnight, room temperature",20
C=CC(=O)Nc1cccc(Oc2nc(Nc3ccc(N4CCN(C)CC4)cc3)nc3ccoc23)c1,BMX,,,,< 0.000254
C#CCSc1nc(Sc2nnnn2-c2ccccc2)c2nnn(Cc3ccc(OC)cc3)c2n1,"KDM1A (Homo sapiens, UniProt O60341)",inhibitor,,,0.136
Cc1ccc(C(C)C)cc1O,"uncharacterized protein (Bradysia odoriphaga, UniProt A0A2S0X9G4)","binding, competitive fluorescence displacement",,pH 7.4,> 50
O=C(Nc1ccc(Cl)c(Br)c1)c1ccc2c(c1)C(=O)NC2=O,MAOA,,,,> 40
C=C1CC/C=C(/C)CC[C@@H]2[C@@H]1CC2(C)C,"uncharacterized protein (Bradysia odoriphaga, UniProt A0A2S0X9G4)","binding, competitive fluorescence displacement",,pH 7.4,> 50
CCCCCCCCCCCC(=O)OC,"uncharacterized protein (Drosophila suzukii, UniProt A0AB39ZCT4)","binding, bis-ANS competition fluorescence",,"pH 7.4, added: bis-ANS",> 50
c1cc(N2CCCC2)ccc1-c1cc2ncc(OCC3CCNCC3)nc2cc1-c1ccc(N2CCCC2)cc1,MLLT1 with AF4,AlphaScreen,,,0.35 ± 0.007
CCn1c(NC(=O)Nc2ccccc2C)nc2ccccc21,fabG,"enzyme activity, inhibitor, NADPH fluorescence",,"reverse reaction, geometric mean, added: 3-OH-decanoyl-NAC, NADP",6.7
CCCCCCCCCCCCCCCC(=O)OC,"uncharacterized protein (Drosophila suzukii, UniProt A0AB39ZGK5)","binding, bis-ANS competition fluorescence",,"pH 7.4, added: bis-ANS",> 50
Cc1nc(Nc2ncc(C(=O)Nc3c(C)cccc3Cl)s2)cc(N2CC[C@H](O)C2)n1,BMX,"enzyme activity, inhibitor",,,0.00025
C=C(C)[C@@H]1CC[C@]2(C)CC[C@]3(C)[C@H](CC[C@@H]4[C@@]5(C)CCCC(C)(C)[C@@H]5CC[C@]43C)[C@@H]12,MAOA,"enzyme activity, inhibitor",,added: kynuramine 80 µM,> 100
O=S(=O)(Nc1ccc(-c2nc3cc(NS(=O)(=O)c4ccc(C(F)(F)F)cc4)ccc3o2)cc1)c1ccc(C(F)(F)F)cc1,TST,"enzyme activity, inhibitor",,native rhodanese counter-screen,> 100
O=C(Nc1ccc(Cl)cc1)c1ccc2c(c1)C(=O)NC2=O,MAOA,,,,> 40
c1cc(N2CCCCC2)ccc1Nc1cc2ncc(OCC3CCNCC3)nc2cc1-c1ccc(N2CCCCC2)cc1,"Protein ENL, with DOT1L (MLLT1, Homo sapiens, UniProt Q03111)",AlphaScreen,,,1.1 ± 0.13
CN1C(=O)[C@@H](Cc2ccc(O)cc2)NC(=O)CNC(=O)[C@H](Cc2ccc3ccccc3c2)NC(=O)[C@H](CCCNC(=N)N)NC(=O)[C@H]1CCCNC(=O)c1ccc(CNC(=O)CN2CCN(CC(=O)O)CCN(CC(=O)O)CCN(CC(=O)O)CC2)cc1,"CXCR4 (Homo sapiens, UniProt P61073)",,,,0.0441 ± 0.0042
CC(=O)/C=C/C1=C(C)CCCC1(C)C,"uncharacterized protein (Drosophila suzukii, UniProt A0AB39ZGK5)","binding, bis-ANS competition fluorescence",,"pH 7.4, added: bis-ANS",7.05
O=C(O)c1ccc(NS(=O)(=O)c2ccc(Cl)c(Cl)c2)cc1,"Estradiol 17-beta-dehydrogenase 11 (Homo sapiens, UniProt Q8NBQ5)","enzyme activity, inhibitor",,added: 20-HETE ethanolamide substrate,> 100
COc1cc(NC(=O)c2cccs2)c2ncccc2c1,fabG,,,,0.11
Cc1[nH]c(N)nc1/C=C/C(=O)c1cc(F)cc(F)c1,"Voltage-gated hydrogen channel 1, monomeric (HVCN1, Homo sapiens, UniProt Q96D96)","proton current, inhibitor, inside-out patch clamp",,pH 6.0,20.6 ± 0.7
O=C(Nc1cccc(Br)c1)c1ccc2c(c1)C(=O)NC2=O,MAOA,,,,> 40
COc1ccccc1S(=O)(=O)Nc1ccc(-c2nc3cc(NS(=O)(=O)c4ccccc4OC)ccc3o2)cc1,TST,"enzyme activity, inhibitor",,native rhodanese counter-screen,> 100
COC(=O)[C@H](c1ccccc1Cl)N1CCc2sccc2C1,"Cytochrome P450 2B4 (Oryctolagus cuniculus, UniProt P00178, F297A/H226Y/P221S)",,mutant enzyme,added: 50 µM substrate,0.4 ± 0.03
OC[C@H]1O[C@H](O[C@H]2O[C@H](CO)[C@@H](O)[C@H](O)[C@H]2O)[C@H](O)[C@@H](O)[C@@H]1O,"uncharacterized protein (Drosophila suzukii, UniProt A0AB39ZGK5)","binding, bis-ANS competition fluorescence",,"pH 7.4, added: bis-ANS",> 50
O=C(NCc1ccccc1)c1ccc2c(c1)C(=O)NC2=O,MAOA,,,,> 40
O=C1Nc2ccc(Cl)cc2[C@@](C#CC2CC2)(C(F)(F)F)O1,"Gag-Pol polyprotein, reverse transcriptase (gag-pol, Xenotropic MuLV-related virus, UniProt A1Z651)","inhibitor, primer extension",,added: 1 µM dNTPs,> 10
CC(C)=CCCC(C)CCO (stereo not drawn),"uncharacterized protein (Bradysia odoriphaga, UniProt A0A2S0X9G4)","binding, competitive fluorescence displacement",,pH 7.4,> 50
CC[C@@H]1[C@H](F)C(=O)N[C@@H]1COc1nccc2cc(C(N)=O)c(OC)cc12,"RPS6KA1 (Homo sapiens, UniProt Q15418)","ATP-site binding, ActivX kinase profiling",THP-1 cell lysate,RSK1 domain 1 activation-loop probe peptide,> 5
C=CC(C)(CCC=C(C)C)OC(C)=O (stereo not drawn),"uncharacterized protein (Drosophila suzukii, UniProt A0AB39ZGK5)","binding, bis-ANS competition fluorescence",,"pH 7.4, added: bis-ANS",> 50
O=C(Nc1cccc(F)c1)c1ccc2c(c1)C(=O)NC2=O,MAOA,,,,> 40
C[C@]12CC[C@@H]3c4ccc(O)cc4C[C@@H](CCCCCCCCC[S+]([O-])CCCC(F)(F)C(F)(F)F)[C@H]3[C@@H]1CC[C@@H]2O (stereo partly drawn),"NR3C2 (Homo sapiens, UniProt P08235)","MR receptor activity, agonist, cell-based",,,> 10
O=C(Nc1ccc(Sc2nc3ccccc3s2)c(Cl)c1)c1cccc(Br)c1O,TST,"enzyme activity, inhibitor",,native rhodanese counter-screen,> 100
C/C(=N\NC(=O)c1cccc(S(=O)(=O)N2CCOCC2)c1)c1cc(Cl)ccc1O,"Lysine-specific histone demethylase 1A, with CoREST (KDM1A, Homo sapiens, UniProt O60341)","demethylase activity, inhibitor",,LSD1-CoREST complex,0.136
NS(=O)(=O)c1ccc(Nc2nc(-c3ccc(F)cc3F)cs2)cc1,fabG,"enzyme activity, inhibitor, NADPH fluorescence",,"reverse reaction, geometric mean, added: 3-OH-decanoyl-NAC, NADP",11.5
O=S(=O)(Nc1ccc(-c2nc3cc(NS(=O)(=O)c4ccccc4Cl)ccc3o2)cc1)c1ccccc1Cl,TST,"enzyme activity, inhibitor",,native rhodanese counter-screen,> 100
CCCCCCCCCCCCCC(=O)OC,"uncharacterized protein (Drosophila suzukii, UniProt A0AB39ZGK5)","binding, bis-ANS competition fluorescence",,"pH 7.4, added: bis-ANS",> 50
CCCCOC(=O)CCC(C)=O,"uncharacterized protein (Bradysia odoriphaga, UniProt A0A2S0X9G4)","binding, competitive fluorescence displacement",,pH 7.4,> 50
OC[C@H]1O[C@@](CO)(O[C@H]2O[C@H](CO)[C@@H](O)[C@H](O)[C@H]2O)[C@@H](O)[C@@H]1O,"uncharacterized protein (Drosophila suzukii, UniProt A0AB39ZCT4)","binding, bis-ANS competition fluorescence",,"pH 7.4, added: bis-ANS",> 50
CN1CCC(CNc2ccc3ncc(-c4cccc(OC(F)(F)F)c4)n3n2)CC1,"KDR (Homo sapiens, UniProt P35968)","binding, KINOMEscan binding",,top concentration 10 µM,4.67
Cc1cc(C)n2nc(C)c(-c3ccc(F)cc3)c2n1,fabG,,,,0.31
O=C(Nc1ccc(Sc2nc3ccccc3s2)cc1)c1cc(Br)cc(Br)c1O,TST,"enzyme activity, inhibitor",,native rhodanese counter-screen,> 100
Cc1cnc(-c2ccc(-c3ccc(NC(=O)Nc4c(F)cc(F)cc4F)cc3F)c3c2C(=O)NC3)[nH]1,"TNIK (Homo sapiens, UniProt Q9UKE5)","enzyme activity, inhibitor, mobility shift",,added: ATP 1 mM,0.0995
Nc1ncnc2c1ncn2[C@@H]1O[C@H](CSCC[C@H](N)C(=O)O)[C@@H](O)[C@H]1O,"Genome polyprotein, NS5 methyltransferase domain (pol, Dengue virus type 3, UniProt Q6YMS4)",,,,0.8
OCCc1ccccc1,"uncharacterized protein (Drosophila suzukii, UniProt A0AB39ZCT4)","binding, bis-ANS competition fluorescence",,"pH 7.4, added: bis-ANS",> 50
O=C(Nc1cc(Cl)cc(Cl)c1)c1ccc2c(c1)C(=O)NC2=O,MAOA,,,,> 40
O=C(Nc1ccc2ccccc2n1)Nc1cccs1,fabG,"enzyme activity, inhibitor, NADPH fluorescence",,"reverse reaction, geometric mean, added: 3-OH-decanoyl-NAC, NADP",1.6
CC(C)C[C@H](NC(=O)[C@H](Cc1cccc2ccccc12)NC(=O)OCc1ccccc1)C(=O)N[C@H](CS)C[C@@H]1CCNC1=O,ORF1 3C-like protease,"protease activity, inhibitor, FRET",GI.1,37 °C,> 10
CCCCCCCCCC=O,"uncharacterized protein (Bradysia odoriphaga, UniProt A0A2S0X9G4)","binding, competitive fluorescence displacement",,pH 7.4,> 50
CC(C)C[C@H](NC(=O)[C@H](Cc1cccc2ccccc12)NC(=O)OCc1ccccc1)C(=O)N[C@H](CO)CNC(=O)N1CCC1,ORF1 3C-like protease,"protease activity, inhibitor, FRET",GI.1,37 °C,> 100
O=S(=O)(Nc1ccc(-c2nc3cc(NS(=O)(=O)c4cccc(C(F)(F)F)c4)ccc3o2)cc1)c1cccc(C(F)(F)F)c1,TST,"enzyme activity, inhibitor",,native rhodanese counter-screen,> 100

# Some of these lines once more:
SMILES,target,test,test system,conditions,IC50 [µM]
O=C(Nc1ccc(Cl)c(Br)c1)c1ccc2c(c1)C(=O)NC2=O,MAOA,,,,> 40
C=C1CC/C=C(/C)CC[C@@H]2[C@@H]1CC2(C)C,"uncharacterized protein (Bradysia odoriphaga, UniProt A0A2S0X9G4)","binding, competitive fluorescence displacement",,pH 7.4,> 50
CCCCCCCCCCCC(=O)OC,"uncharacterized protein (Drosophila suzukii, UniProt A0AB39ZCT4)","binding, bis-ANS competition fluorescence",,"pH 7.4, added: bis-ANS",> 50
c1cc(N2CCCC2)ccc1-c1cc2ncc(OCC3CCNCC3)nc2cc1-c1ccc(N2CCCC2)cc1,MLLT1 with AF4,AlphaScreen,,,0.35 ± 0.007
CCn1c(NC(=O)Nc2ccccc2C)nc2ccccc21,fabG,"enzyme activity, inhibitor, NADPH fluorescence",,"reverse reaction, geometric mean, added: 3-OH-decanoyl-NAC, NADP",6.7
